Measured values collected from several papers.
Protocols differ between the studies behind these lines.
CALCR: Calcitonin receptor (CALCR, Homo sapiens, UniProt P30988)
VHL/BRD9 with Elongin B/C: VHL/BRD9, with Elongin B/C (Homo sapiens, UniProt P40337+Q9H8M2)

`CSCC[C@H](NC(=O)[C@H](CC(C)C)NC(=O)CNC(=O)[C@H](Cc1ccccc1)NC(=O)[C@H](Cc1ccccc1)NC(=O)[C@@H](N)CCC(N)=O)C(N)=O` has an EC50 of 0.0631 µM (Substance-P receptor (TACR1, Homo sapiens, UniProt P25103)).
`CC(=O)NCCN(c1nc(NCc2n[nH]c3c2CCCC3)nc(N2CC3C(CCOc4cc(-c5scnc5C)ccc4CNC(=O)[C@@H]4C[C@@H](O)CN4C(=O)[C@@H](NC(=O)C4(F)CC4)C(C)(C)C)C3C2)n1)C(C)C` (stereo partly drawn) gave an EC50 of 0.191 µM (VHL/BRD9 (Homo sapiens, UniProt P40337+Q9H8M2); ternary complex formation, NanoBiT; HEK293T; 2 h, added: MLN4924 2 µM).
The EC50 of `CC[C@H](C)[C@@H](C(=O)N[C@@H](CC(C)C)C(=O)N[C@@H](CO)C(=O)N[C@@H](CO)C(=O)N[C@H](C(=O)N[C@@H](CCC(=O)O)C(=O)N[C@H](C(=O)NCC(=O)N[C@@H](CO)C(=O)N[C@@H](CC(N)=O)C(=O)N[C@H](C(=O)N1C[C@H](O)C[C@H]1C(N)=O)[C@@H](C)O)C(C)C)[C@@H](C)O)N(C)C(=O)[C@H](C)NC(=O)CN(C)C(=O)[C@H](Cc1ccccc1)NC(=O)[C@H](CO)NC(=O)[C@H](CO)NC(=O)[C@H](CCCNC(=N)N)NC(=O)[C@H](CCC(N)=O)NC(=O)[C@H](CC(C)C)NC(=O)[C@H](Cc1ccccc1)NC(=O)[C@H](CCCC(=O)O)NC(=O)[C@H](C)NC(=O)[C@H](CC(C)C)NC(=O)[C@H](CCCNC(=N)N)NC(=O)[C@H](CCC(=O)O)NC(=O)[C@@H](NC(=O)[C@H](C)NC(=O)[C@@H]1CCCCNC(=O)C[C@H](NC(=O)[C@H](CCCNC(=N)N)NC(=O)CC[C@H](NC(=O)CCCCCCCCCCCCCCCCCCC(=O)O)C(=O)O)C(=O)NCC(=O)N[C@@H]([C@@H](C)O)C(=O)N[C@@H](C)C(=O)N[C@@H]([C@@H](C)O)C(=O)N1)[C@@H](C)O` is reported as 0.000316 µM (CALCR; cAMP, agonist).
`Cn1c(=O)n(C2CCC(=O)NC2=O)c2ccc(C3CCN(CC(=O)Nc4cccc(CS(=O)(=O)N5CC[C@H](Nc6cccc(-c7sc(C(=O)O)c(OCC(=O)O)c7Cl)c6)CC5(C)C)c4)CC3)cc21` (stereo partly drawn) gave an EC50 of > 10 µM (Low molecular weight phosphotyrosine protein phosphatase (ACP1, Homo sapiens, UniProt P24666); phosphatase activity; added: DiFMUP substrate).
For `Cc1ncsc1-c1ccc(CNC(=O)[C@@H]2C[C@@H](O)CN2C(=O)[C@@H](NC(=O)C2(F)CC2)C(C)(C)C)c(OCCC2CCN(c3nc(N(C)CCNC(=O)C(C)C)nc(N4CCn5nnc(CO)c5C4)n3)CC2)c1`, the EC50 was 0.067 µM (VHL/BRD9 with Elongin B/C; ternary complex formation, AlphaScreen; added: 50 nM His-BRD9 and 20 nM biotin-VCB).
For `COC1CN([C@H]2CC[C@H]([C@@]3(C)Oc4c(Cl)cc(C(=O)NCc5c(SC)cc(C)[nH]c5=O)c(C)c4O3)CC2)C1`, “log2 fold change” read 0.456 (RNA-seq, measured: PCP4L1 mouse homolog; mouse, HT-1376 xenograft, whole blood; dose not given; baseline: vehicle).
`Cc1nn(-c2cccc(N)c2)c(=O)c2cnc(Nc3ccc(N4CCNCC4)cc3)nc12` gave an IC50 of > 10 µM (Casein kinase II subunit alpha (CSNK2A1, Homo sapiens, UniProt P68400); enzyme activity, inhibitor).
`CNc1ncnc2c1ncn2C1OC(CO)C(O)C1O` (stereo not drawn) gave an EC50 of 0.018 µM (Adenosine receptor A3 (ADORA3, Homo sapiens, UniProt P0DMS8, V169L); G protein activation, agonist).
`O=Cc1ccc([N+](=O)[O-])c(OS(=O)(=O)C2CCOCC2)c1` gave an EC50 of > 1000 µM (YWHAG/RELA, phospho-Ser45 p65 peptide (Homo sapiens, UniProt P61981+Q04206); ternary complex formation, stabilizer, fluorescence anisotropy).
The EC50 of `CC[C@H](C)[C@@H](C(=O)N[C@@H](CC(C)C)C(=O)N[C@@H](CO)C(=O)N[C@@H](CO)C(=O)N[C@H](C(=O)N[C@@H](CCC(=O)O)C(=O)N[C@H](C(=O)NCC(=O)N[C@@H](CO)C(=O)N[C@@H](CC(N)=O)C(=O)N[C@H](C(=O)N1C[C@H](O)C[C@H]1C(N)=O)[C@@H](C)O)C(C)C)[C@@H](C)O)N(C)C(=O)[C@H](C)NC(=O)CN(C)C(=O)[C@H](Cc1ccccc1)NC(=O)[C@H](CO)NC(=O)[C@H](CO)NC(=O)[C@H](CCCNC(=N)N)NC(=O)[C@H](CCC(N)=O)NC(=O)[C@H](CC(C)C)NC(=O)[C@H](Cc1ccccc1)NC(=O)[C@H](Cc1c[nH]cn1)NC(=O)[C@H](C)NC(=O)[C@H](CC(C)C)NC(=O)[C@H](CCCNC(=N)N)NC(=O)[C@H](CCC(=O)O)NC(=O)[C@@H](NC(=O)[C@H](C)NC(=O)[C@@H]1CC(=O)NCCC[C@H](NC(=O)[C@H](CCCNC(=N)N)NC(=O)CC[C@H](NC(=O)CCCCCCCCCCCCCCCCCCC(=O)O)C(=O)O)C(=O)NCC(=O)N[C@@H]([C@@H](C)O)C(=O)N[C@@H](C)C(=O)N[C@@H]([C@@H](C)O)C(=O)N1)[C@@H](C)O` is reported as 0.0813 µM (CALCR; cAMP, agonist).
With `CC(=O)NCC1CCCCN1c1nc(N2CCN(c3nnc[nH]3)CC2)nc(N2CC3C(CCOc4cc(-c5scnc5C)ccc4CNC(=O)[C@@H]4C[C@@H](O)CN4C(=O)[C@@H](NC(=O)C4(F)CC4)C(C)(C)C)C3C2)n1` (stereo partly drawn) the EC50 was 0.226 µM (VHL/BRD9 with Elongin B/C; ternary complex formation, AlphaScreen; added: 50 nM His-BRD9 and 20 nM biotin-VCB).
`Nc1ncc(-c2cc(-c3cnn(CC(F)(F)F)c3)ncc2F)nc1C(=O)NC1CNCC(F)C1` (stereo not drawn) gave a remaining binding of 80% (HIPK4; KINOMEscan; 1 µM; baseline: DMSO control).
For `Cc1ncsc1-c1ccc(C(C)NC(=O)C2CC(O)CN2C(=O)C(NC(=O)CCCCCCCCCCN2CCCC(Nc3ncc(Cl)c(Nc4ccccc4S(=O)(=O)C(C)C)n3)C2)C(C)(C)C)cc1` (stereo not drawn), “log2 fold change” read -1.1 (22Rv1; RNA-seq, measured: THUMPD3 mRNA; concentration not given; baseline: DMSO).
With `CNS(=O)(=O)Nc1nccc(Cc2c(C)c3ccc(Oc4ncccc4F)cc3oc2=O)c1F` the IC50 was 0.000968 µM (NCI-H508; cell viability; 7 days).
With `C=C(NC(=O)c1csc(-c2nc3c(cc2O)-c2nc(cs2)C(=O)NC(C(C)O)C(=O)NC(=C(C)OC)c2nc(cs2)C(=O)NC2c4nc(cs4)C(=O)NC(COC(=O)c4c5c6c(cccc6n4O)COC(=O)C(OC4CC(C)(O)C(N(C)C)C(C)O4)C2OC5)c2nc-3cs2)n1)C(N)=O` (stereo not drawn) the clearance was 55.2 mL/min/kg (Sprague-Dawley rat, male, plasma; intravenous infusion, 6 mg/kg single dose).
With `CC[C@H](C)[C@H](NC(=O)[C@@H]1CCCN1C(=O)CNC(=O)[C@H](Cc1ccccc1)NC(=O)[C@H](CC(N)=O)NC(=O)[C@H](CC(N)=O)NC(=O)[C@H](CO)NC(=O)[C@H](CO)NC(=O)[C@H](Cc1c[nH]cn1)NC(=O)[C@H](CCCNC(=N)N)NC(=O)[C@H](CC(C)C)NC(=O)[C@H](Cc1ccccc1)NC(=O)[C@H](CCC(=O)O)NC(=O)[C@H](C)NC(=O)[C@H](CC(C)C)NC(=O)[C@H](CCCNC(=N)N)NC(=O)[C@H](CCC(N)=O)NC(=O)[C@@H](NC(=O)[C@H](C)NC(=O)[C@@H]1CSSC[C@H](NC(=O)[C@H](CCCCN)NC(=O)CC[C@H](NC(=O)CCCCCCCCCCCCCCCCCCC(=O)O)C(=O)O)C(=O)N[C@@H](CC(N)=O)C(=O)N[C@@H]([C@@H](C)O)C(=O)N[C@@H](C)C(=O)N[C@@H]([C@@H](C)O)C(=O)N1)[C@@H](C)O)C(=O)N[C@@H](CC(C)C)C(=O)N1CCC[C@H]1C(=O)N1CCC[C@H]1C(=O)N[C@H](C(=O)N[C@@H](CC(N)=O)C(=O)N[C@H](C(=O)NCC(=O)N[C@@H](CO)C(=O)N[C@@H](CC(N)=O)C(=O)N[C@H](C(=O)N1CCC[C@H]1C(N)=O)[C@@H](C)O)C(C)C)[C@@H](C)O` the EC50 was 1.09e-06 µM (Calcitonin receptor, isoform a (CALCR, Homo sapiens, UniProt P30988); cAMP accumulation, agonist, cAMP HTRF; COS-7, BacMam expression; 30 min, without human serum albumin).
`CC[C@H](C)[C@@H](C(=O)N[C@@H](CC(C)C)C(=O)N[C@@H](CO)C(=O)N[C@@H](CO)C(=O)N[C@H](C(=O)N[C@@H](CCC(=O)O)C(=O)N[C@H](C(=O)NCC(=O)N[C@@H](CO)C(=O)N[C@@H](CC(N)=O)C(=O)N[C@H](C(=O)N1C[C@H](O)C[C@H]1C(N)=O)[C@@H](C)O)C(C)C)[C@@H](C)O)N(C)C(=O)[C@H](C)NC(=O)CN(C)C(=O)[C@H](Cc1ccccc1)NC(=O)[C@H](CO)NC(=O)[C@H](CO)NC(=O)[C@H](CCCNC(=N)N)NC(=O)[C@H](CCC(N)=O)NC(=O)[C@H](CC(C)C)NC(=O)[C@H](Cc1ccccc1)NC(=O)[C@H](CCCC(=O)O)NC(=O)[C@H](C)NC(=O)[C@H](CC(C)C)NC(=O)[C@H](CCCNC(=N)N)NC(=O)[C@H](CCC(=O)O)NC(=O)[C@@H](NC(=O)[C@H](C)NC(=O)[C@@H]1CSSC[C@H](NC(=O)[C@H](CCCNC(=N)N)NC(=O)CC[C@H](NC(=O)CCCCCCCCCCCCCCCCCCC(=O)O)C(=O)O)C(=O)NCC(=O)N[C@@H]([C@@H](C)O)C(=O)N[C@@H](C)C(=O)N[C@@H]([C@@H](C)O)C(=O)N1)[C@@H](C)O` gave an EC50 of 0.000151 µM (CALCR; cAMP, agonist).
The EC50 of `COc1cc(C2C(NC(=O)c3ccc(NC(=O)OC(C)(C)C)cc3)(C(=O)O)C(c3ccc(OC(=O)c4cccs4)c(OC)c3)C2(NC(=O)c2ccc(NC(=O)OC(C)(C)C)cc2)C(=O)O)ccc1OC(=O)c1cccs1` (stereo not drawn) is reported as 0.0339 µM (Glucagon-like peptide 1 receptor (GLP1R, Homo sapiens, UniProt P43220, L384A); cAMP, agonist).

For quick reference, copied from above:
`Cc1nn(-c2cccc(N)c2)c(=O)c2cnc(Nc3ccc(N4CCNCC4)cc3)nc12` gave an IC50 of > 10 µM (Casein kinase II subunit alpha (CSNK2A1, Homo sapiens, UniProt P68400); enzyme activity, inhibitor).
`CNc1ncnc2c1ncn2C1OC(CO)C(O)C1O` (stereo not drawn) gave an EC50 of 0.018 µM (Adenosine receptor A3 (ADORA3, Homo sapiens, UniProt P0DMS8, V169L); G protein activation, agonist).
